Assay results pooled from the literature.
Each line is one published result; not all experiments were run side by side. Numbers after ± are the reported error.

Structure (SMILES)	target	test	test system	setting	how to read	quantity	value
COc1cc(/C=C/C(=O)CC(=O)/C=C/c2ccc(O)c(OC)c2)ccc1O	tyrosine	fluorescence titration				association constant	160000 M⁻¹
Nc1nc2c(ncn2[C@@H]2O[C@@H]3COP(=O)(O)O[C@H]3[C@H]2O)c(=O)[nH]1	cone cGMP-gated channel	ion current, agonist, inside-out patch clamp		-40 mV, added: calmodulin 200 nM		EC50	87 µM
CCN(CC)Cc1ccc(S(=O)(=O)N(C)Cc2ccccc2)cc1	CXCR4	CXCL12-induced cell invasion, Matrigel invasion	MDA-MB-231	10 nM (0.01 µM), added: CXCL12 200 ng/mL	reference: reference compound as 100%	inhibition	71%
C=C[C@@]1(C)CC(=O)[C@]2(O)[C@@]3(C)[C@@H](O)CCC(C)(C)[C@@H]3[C@H](O)[C@H](OC(C)=O)[C@@]2(C)O1	RXFP3 (human)	cAMP level, agonist	HEK-RXFP3 cells		approximate	EC50	~0.5 µM
CN(C)CC[C@@H]1NC(=O)c2coc(n2)-c2coc(n2)-c2cccc(c2)-c2cccc(c2)-c2nc(co2)-c2nc(co2)CNC1=O	salmon testes duplex DNA	UV melting		15 µM, pH 7.5, added: 150 mM K+	reference: DNA without compound	melting temperature shift	0.6 °C
CCOC(=O)c1ccc(N)cc1	voltage-gated Na+ channel	ion current, blocker, whole-cell patch clamp	GH3 (rat)	holding potential -70 mV		Kd	~1300 µM
CN(Cc1ccccc1)S(=O)(=O)c1ccc(CNCc2ccccn2)cc1	CXCR4	CXCL12-induced cell invasion, Matrigel invasion	MDA-MB-231	10 nM (0.01 µM), added: CXCL12 200 ng/mL	reference: reference compound as 100%	inhibition	48%
NCC[C@@H]1NC(=O)c2coc(n2)-c2coc(n2)-c2cccc(c2)-c2cccc(c2)-c2nc(co2)-c2nc(co2)CNC1=O	salmon testes duplex DNA	UV melting		15 µM, pH 7.5, added: 150 mM K+	reference: DNA without compound	melting temperature shift	1 °C
CSCC[C@H](NC(=O)[C@H](CCCNC(=N)N)NC(=O)[C@H](Cc1ccc(O)cc1)NC(=O)[C@@H]1CCCN1C(=O)CNC(=O)[C@H](CCC(=O)O)NC(=O)[C@H](CC(=O)O)NC(=O)[C@H](CCCCN)NC(=O)[C@H](CCCCN)NC(=O)[C@H](CCC(=O)O)NC(=O)[C@H](C)N)C(=O)N[C@@H](CCC(=O)O)C(=O)N[C@@H](Cc1c[nH]cn1)C(=O)N[C@@H](Cc1ccccc1)C(=O)N[C@@H](CCCNC(=N)N)C(=O)N[C@@H](Cc1c[nH]c2ccccc12)C(=O)NCC(=O)N[C@@H](CO)C(=O)N1CCC[C@H]1C(=O)N1CCC[C@H]1C(=O)N[C@@H](CCCCN)C(=O)N[C@@H](CC(=O)O)C(=O)O	melanocortin 4 receptor (dog)	cAMP generation, agonist	HEK-293T transfected	1 h, 37 °C		EC50	0.00226 ± 0.00075 µM
CN(Cc1ccccc1)S(=O)(=O)c1ccc(CN2CCOCC2)cc1	CXCR4	CXCL12-induced cell invasion, Matrigel invasion	MDA-MB-231	10 nM (0.01 µM), added: CXCL12 200 ng/mL	reference: reference compound as 100%	inhibition	0%
CC(C)[C@@H]1NC(=O)c2coc(n2)-c2coc(n2)-c2coc(n2)[C@H](CCN(C)C)NC(=O)c2coc(n2)-c2coc(n2)-c2coc1n2	salmon testes duplex DNA	UV melting		15 µM, pH 7.5, added: 150 mM K+	reference: DNA without compound	melting temperature shift	0.6 °C
O=P(O)(O)O[C@@H]1[C@H](O)[C@H](O)[C@@H](OP(=O)(O)O)[C@H](OP(=O)(O)O)[C@H]1O	InsP3 receptor 2-1-2 chimera, rat	channel opening, agonist, planar lipid bilayer		0 mV, added: 200 nM free Ca2+		EC50	0.0139 ± 0.038 µM
COc1ccc(C2CNC(=O)C2)cc1OC1CCCC1 (stereo not shown)	phosphodiesterase 4, human	enzyme activity, inhibitor	HEK293 expressing CNG C460W/E583M	added: forskolin 0.5 µM		Ki	0.09 µM
O=C1c2c(O)ccc(O)c2C(=O)c2c(NCCNCCO)ccc(NCCNCCO)c21	vasopressin V2 receptor L83Q (human)	agonist	cells with inducible mutant V2R, gene off	36 h, counter screen, added: doxycycline 1 µg/mL		EC50	~2 µM
CN(Cc1ccccc1)S(=O)(=O)c1ccc(CN2CCCCC2)cc1	CXCR4	CXCL12-induced cell invasion, Matrigel invasion	MDA-MB-231	10 nM (0.01 µM), added: CXCL12 200 ng/mL	reference: reference compound as 100%	inhibition	94%
Nc1nc2c(ncn2[C@@H]2O[C@@H]3COP(=O)(O)O[C@H]3[C@H]2O)c(=O)[nH]1	compound antibody	binding, non-acetylated EIA				EC50	0.0117 µM
